Measured values of several laboratories.
Protocols differ between the studies behind these lines. ± marks the error that the study gave.
UniProt O43148, sequence (whole entry, looked up): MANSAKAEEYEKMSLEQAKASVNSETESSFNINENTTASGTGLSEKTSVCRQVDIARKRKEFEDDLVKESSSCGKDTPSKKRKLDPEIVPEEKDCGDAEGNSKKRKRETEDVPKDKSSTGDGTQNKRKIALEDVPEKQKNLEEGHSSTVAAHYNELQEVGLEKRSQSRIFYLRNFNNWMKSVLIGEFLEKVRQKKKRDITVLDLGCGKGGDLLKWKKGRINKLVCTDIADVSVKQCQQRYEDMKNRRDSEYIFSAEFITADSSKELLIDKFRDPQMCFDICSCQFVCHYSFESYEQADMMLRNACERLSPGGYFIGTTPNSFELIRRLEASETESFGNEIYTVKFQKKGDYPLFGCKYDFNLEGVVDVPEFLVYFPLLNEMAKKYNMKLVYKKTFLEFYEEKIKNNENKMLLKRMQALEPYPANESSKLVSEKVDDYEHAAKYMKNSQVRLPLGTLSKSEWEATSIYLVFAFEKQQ
UniProt Q8E0N2, sequence (whole entry, looked up): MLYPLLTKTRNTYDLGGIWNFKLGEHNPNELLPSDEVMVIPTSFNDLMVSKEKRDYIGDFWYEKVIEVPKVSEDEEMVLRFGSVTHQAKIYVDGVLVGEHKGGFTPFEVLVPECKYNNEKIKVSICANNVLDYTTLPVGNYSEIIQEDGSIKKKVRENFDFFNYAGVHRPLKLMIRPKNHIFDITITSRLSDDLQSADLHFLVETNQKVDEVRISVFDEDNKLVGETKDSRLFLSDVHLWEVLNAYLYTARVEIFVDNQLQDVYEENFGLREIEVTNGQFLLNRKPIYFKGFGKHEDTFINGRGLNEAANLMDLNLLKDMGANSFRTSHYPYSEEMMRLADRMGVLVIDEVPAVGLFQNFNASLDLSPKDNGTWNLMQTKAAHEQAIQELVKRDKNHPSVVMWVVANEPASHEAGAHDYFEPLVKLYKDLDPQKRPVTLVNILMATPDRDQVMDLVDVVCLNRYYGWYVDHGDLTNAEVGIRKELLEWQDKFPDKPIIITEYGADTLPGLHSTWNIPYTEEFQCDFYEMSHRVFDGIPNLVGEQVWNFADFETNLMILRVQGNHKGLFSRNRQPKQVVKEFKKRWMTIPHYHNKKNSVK
UniProt Q96RJ0, sequence (whole entry, looked up): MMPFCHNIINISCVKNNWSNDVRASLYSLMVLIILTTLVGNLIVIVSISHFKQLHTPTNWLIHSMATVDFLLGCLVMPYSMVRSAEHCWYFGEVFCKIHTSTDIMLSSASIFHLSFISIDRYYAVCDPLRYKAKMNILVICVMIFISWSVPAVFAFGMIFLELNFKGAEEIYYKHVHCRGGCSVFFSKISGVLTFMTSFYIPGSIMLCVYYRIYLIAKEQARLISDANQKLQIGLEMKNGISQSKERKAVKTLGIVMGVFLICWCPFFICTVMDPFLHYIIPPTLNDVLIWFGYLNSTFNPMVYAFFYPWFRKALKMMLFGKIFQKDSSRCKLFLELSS
UniProt P34969, sequence (whole entry, looked up): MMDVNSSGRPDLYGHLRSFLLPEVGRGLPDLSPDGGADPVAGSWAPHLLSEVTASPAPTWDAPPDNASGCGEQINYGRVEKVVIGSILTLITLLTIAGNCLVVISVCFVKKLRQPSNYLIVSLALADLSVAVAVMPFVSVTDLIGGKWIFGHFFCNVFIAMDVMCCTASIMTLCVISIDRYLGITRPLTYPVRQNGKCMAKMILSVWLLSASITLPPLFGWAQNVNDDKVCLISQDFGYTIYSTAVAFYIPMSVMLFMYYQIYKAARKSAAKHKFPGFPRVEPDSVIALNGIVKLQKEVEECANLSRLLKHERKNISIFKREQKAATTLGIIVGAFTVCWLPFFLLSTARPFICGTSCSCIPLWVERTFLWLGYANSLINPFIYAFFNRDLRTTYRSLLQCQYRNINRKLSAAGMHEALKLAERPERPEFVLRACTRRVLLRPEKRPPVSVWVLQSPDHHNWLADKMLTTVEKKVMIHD
UniProt P35499, sequence (whole entry, looked up): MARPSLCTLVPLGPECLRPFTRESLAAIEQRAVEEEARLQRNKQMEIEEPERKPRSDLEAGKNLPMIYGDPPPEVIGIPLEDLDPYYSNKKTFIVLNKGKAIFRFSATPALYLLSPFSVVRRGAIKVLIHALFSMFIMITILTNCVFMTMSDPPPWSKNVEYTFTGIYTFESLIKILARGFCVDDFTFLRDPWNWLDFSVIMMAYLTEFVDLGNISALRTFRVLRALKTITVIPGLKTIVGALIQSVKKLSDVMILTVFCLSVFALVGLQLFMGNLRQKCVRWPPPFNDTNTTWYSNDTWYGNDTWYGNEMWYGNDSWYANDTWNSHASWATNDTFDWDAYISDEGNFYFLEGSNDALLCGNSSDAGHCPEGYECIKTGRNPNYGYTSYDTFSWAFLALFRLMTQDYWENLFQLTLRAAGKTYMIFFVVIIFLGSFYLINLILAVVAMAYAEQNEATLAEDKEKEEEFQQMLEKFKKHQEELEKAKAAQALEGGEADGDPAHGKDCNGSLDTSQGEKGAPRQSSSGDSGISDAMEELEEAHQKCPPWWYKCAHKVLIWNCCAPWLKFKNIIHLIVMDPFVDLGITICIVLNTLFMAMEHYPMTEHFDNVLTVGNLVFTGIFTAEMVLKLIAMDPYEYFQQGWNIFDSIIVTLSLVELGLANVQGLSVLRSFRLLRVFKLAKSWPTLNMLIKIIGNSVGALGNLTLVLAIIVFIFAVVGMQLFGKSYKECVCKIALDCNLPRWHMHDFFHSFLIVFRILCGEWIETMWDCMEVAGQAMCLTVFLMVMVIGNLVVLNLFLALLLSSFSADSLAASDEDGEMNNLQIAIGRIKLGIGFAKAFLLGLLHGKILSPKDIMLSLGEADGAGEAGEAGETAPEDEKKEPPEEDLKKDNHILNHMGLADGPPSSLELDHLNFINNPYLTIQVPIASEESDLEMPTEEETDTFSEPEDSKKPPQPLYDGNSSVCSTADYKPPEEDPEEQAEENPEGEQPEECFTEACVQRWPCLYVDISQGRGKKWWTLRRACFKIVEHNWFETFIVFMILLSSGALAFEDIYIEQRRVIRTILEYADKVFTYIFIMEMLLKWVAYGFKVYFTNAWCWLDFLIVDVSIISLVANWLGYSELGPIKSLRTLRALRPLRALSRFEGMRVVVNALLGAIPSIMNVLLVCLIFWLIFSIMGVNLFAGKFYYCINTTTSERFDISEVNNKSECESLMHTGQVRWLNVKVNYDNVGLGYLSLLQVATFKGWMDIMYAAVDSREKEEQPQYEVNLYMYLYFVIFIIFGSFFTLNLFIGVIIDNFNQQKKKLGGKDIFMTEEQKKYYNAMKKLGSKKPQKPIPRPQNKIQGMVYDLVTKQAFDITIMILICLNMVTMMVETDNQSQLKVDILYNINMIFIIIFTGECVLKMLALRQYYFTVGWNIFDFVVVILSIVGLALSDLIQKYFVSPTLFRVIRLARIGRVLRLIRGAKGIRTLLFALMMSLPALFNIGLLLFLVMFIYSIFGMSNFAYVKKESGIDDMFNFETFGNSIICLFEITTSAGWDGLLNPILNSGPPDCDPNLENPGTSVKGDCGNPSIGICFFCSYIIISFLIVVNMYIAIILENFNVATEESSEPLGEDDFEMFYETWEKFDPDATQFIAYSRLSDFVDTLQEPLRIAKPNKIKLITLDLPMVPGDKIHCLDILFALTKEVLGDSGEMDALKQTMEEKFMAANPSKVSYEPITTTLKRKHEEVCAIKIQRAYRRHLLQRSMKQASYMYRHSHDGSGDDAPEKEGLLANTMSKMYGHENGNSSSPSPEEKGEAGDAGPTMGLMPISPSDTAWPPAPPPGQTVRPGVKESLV
UniProt P20231, sequence (whole entry, looked up): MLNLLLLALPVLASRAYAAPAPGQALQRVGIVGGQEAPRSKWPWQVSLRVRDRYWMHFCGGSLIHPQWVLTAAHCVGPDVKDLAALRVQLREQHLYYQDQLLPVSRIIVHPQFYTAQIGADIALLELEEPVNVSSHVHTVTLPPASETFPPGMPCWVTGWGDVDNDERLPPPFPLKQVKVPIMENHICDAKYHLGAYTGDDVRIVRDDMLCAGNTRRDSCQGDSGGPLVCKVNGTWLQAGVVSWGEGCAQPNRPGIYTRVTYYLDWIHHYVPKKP
UniProt Q6IQ20, sequence (whole entry, looked up): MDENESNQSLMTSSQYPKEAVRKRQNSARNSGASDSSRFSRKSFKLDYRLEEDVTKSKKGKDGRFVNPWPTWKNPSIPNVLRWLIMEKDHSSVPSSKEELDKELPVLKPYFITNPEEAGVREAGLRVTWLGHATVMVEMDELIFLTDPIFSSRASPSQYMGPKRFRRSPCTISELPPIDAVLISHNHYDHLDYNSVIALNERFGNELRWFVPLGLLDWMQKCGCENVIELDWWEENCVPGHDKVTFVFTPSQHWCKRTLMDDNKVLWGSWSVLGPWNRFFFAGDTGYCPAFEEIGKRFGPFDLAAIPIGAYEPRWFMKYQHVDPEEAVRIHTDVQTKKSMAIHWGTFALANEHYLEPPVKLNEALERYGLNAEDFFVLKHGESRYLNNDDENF
UniProt Q8WTS6, sequence (whole entry, looked up): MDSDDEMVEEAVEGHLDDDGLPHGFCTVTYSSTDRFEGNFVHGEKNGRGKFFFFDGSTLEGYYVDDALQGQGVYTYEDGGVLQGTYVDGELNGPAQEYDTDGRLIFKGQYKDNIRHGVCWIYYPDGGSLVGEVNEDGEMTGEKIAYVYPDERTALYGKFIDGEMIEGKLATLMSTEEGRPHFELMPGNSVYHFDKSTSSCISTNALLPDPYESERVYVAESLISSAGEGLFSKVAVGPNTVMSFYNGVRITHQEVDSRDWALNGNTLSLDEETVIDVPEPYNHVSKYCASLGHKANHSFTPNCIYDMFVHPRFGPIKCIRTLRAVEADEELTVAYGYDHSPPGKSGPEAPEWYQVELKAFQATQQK

Structure (SMILES) | target | test | system | conditions | IC50 [µM]
C1CCc2c(c(N3CCNCC3)nc3sc4c(N5CCNCC5)nnnc4c23)C1 | Beta-glucuronidase (Streptococcus agalactiae serotype V, UniProt Q8E0N2) |  | Streptococcus agalactiae |  | 0.3 ± 0.03
O=NSCC(O)C(O)CSN=O (racemic) | Sh (Drosophila melanogaster, UniProt P08510, C301S/C308S/del6-46/T449V) | potassium current, inhibitor, whole-cell patch clamp | HEK cells | internal TEA competition | ~200
O=C(NCCN1CCC2(CC1)C(=O)NCN2Cc1ccccn1)c1ccc2ccccc2c1 | Phospholipase D2 (Homo sapiens, UniProt O14939) | enzyme activity, inhibitor |  |  | 0.08
C/C=C1/CN2CCc3c([nH]c4ccccc34)[C@@H]2C[C@@H]1/C(=C\OC)C(=O)OC | HTR7 (Homo sapiens, UniProt P34969) | ligand displacement, radioligand |  | cell membranes | 0.034
CC(=O)N[C@@H](CC(C)C)C(=O)N[C@@H](CCC(=O)O)C(=O)N[C@@H](CO)C(=O)N[C@@H](CC(=O)O)C(=O)CCl | Caspase-3 (CASP3, Homo sapiens, UniProt P42574) | enzyme activity, inhibitor, fluorescence |  |  | 54
Cc1cccc(-c2nc(Nc3ccncn3)c3c(C)csc3n2)n1 | Cytochrome P450 3A4 (CYP3A4, Homo sapiens, UniProt P08684) | enzyme activity, inhibitor |  | together with: VG substrate | 76
N#Cc1c(C(F)(F)F)cc(-c2ccc(Cl)cc2)nc1SCC(=O)N1CCCCC1 | TAAR1 (Homo sapiens, UniProt Q96RJ0) |  |  |  | > 10
CC(C)=CCc1c(O)ccc(C(=O)C2C(c3c(O)cc(O)c4c(=O)c(CC=C(C)C)c(-c5ccc(O)cc5O)oc34)C=C(C)CC2c2ccc(O)cc2O)c1O (centres unmarked) | mRNA cap guanine-N(7) methyltransferase, with RAM (RNMT, Homo sapiens, UniProt O43148) | N7-methyltransferase activity, inhibitor, Py-FLINT |  | RNMT-RAM complex, together with: SAM 20 µM | 31.9 ± 0.32
[N-]=[N+]=NCCCCCCO[C@H]1O[C@H](CO[C@H]2O[C@H](CO)[C@@H](O)[C@H](O)[C@@H]2O)[C@@H](O)[C@H](O[C@H]2O[C@H](CO)[C@@H](O)[C@H](O)[C@@H]2O)[C@@H]1O | Concanavalin-A (Canavalia ensiformis, UniProt P02866) | cell-free assay |  |  | 2
CCC(C)SSc1ncc[nH]1 (centres unmarked) | Genome polyprotein, 3C protease (Human enterovirus 71, UniProt B9VUU3) | protease activity, inhibitor, FRET | Enterovirus A71 | no DTT | 4.1 ± 1.9
Cc1cc(S(=O)(=O)Nc2ncccn2)c(F)cc1N(C)C1CCN([C@H](C)c2ccccc2)CC1 | SCN4A (Homo sapiens, UniProt P35499) | sodium current, inhibitor, automated patch clamp |  | inactivated state protocol | 153
Oc1ccc(-c2sc3cc(O)ccc3c2-c2ccc(OCCN3CCCCC3)cc2)cc1 | N-acyl-phosphatidylethanolamine-hydrolyzing phospholipase D (Homo sapiens, UniProt Q6IQ20) | enzyme activity, inhibitor, mass spectrometry |  |  | 58
NCCCC[C@H](NC(=O)[C@H](Cc1c[nH]c2ccccc12)NC(=O)[C@H](CCCCN)NC(=O)CNC(=O)CCC(=O)NN)C(N)=O | Tryptase beta-2 (TPSB2, Homo sapiens, UniProt P20231) |  |  | pH 7.4 | 62.6 ± 6.86
CCCC[C@@H]1NC(=O)[C@H]([C@@H](C)O)NC(=O)[C@H](CCCNC(=N)N)NC(=O)CNC(=O)CC[C@@H](C(=O)N[C@@H](C)C(=O)N[C@@H](CCCNC(=N)N)C(=O)N[C@@H](CCCCN)C(=O)N[C@@H](CO)C(=O)N[C@H](C(=O)NCC(=O)NCC(N)=O)[C@@H](C)O)NC(=O)[C@H](CCC(N)=O)NC1=O | SETD7 (Homo sapiens, UniProt Q8WTS6) | enzyme activity, inhibitor, mass spectrometry |  |  | 0.95

For quick reference, copied from above:
Structure (SMILES) | target | test | system | conditions | IC50 [µM]
Oc1ccc(-c2sc3cc(O)ccc3c2-c2ccc(OCCN3CCCCC3)cc2)cc1 | N-acyl-phosphatidylethanolamine-hydrolyzing phospholipase D (Homo sapiens, UniProt Q6IQ20) | enzyme activity, inhibitor, mass spectrometry |  |  | 58
